# Values quoted from earlier work that unrelated publications cite.
# Each numbered part shows a few of the values that one paper quotes. ± marks the error that the study gave.

# Sample 1 — organism: Cryptosporidium parvum; technique: high-throughput screen; concentration: concentration not given
SMILES,activity
CC1(C)S[C@@H]2[C@H](/N=C/N3CCCCCC3)C(=O)N2[C@H]1C(=O)O,inactive
Cc1nc2ccccn2c(=O)c1CCN1CCC(C(=O)c2ccc(F)cc2)CC1,inactive
C#C[C@]1(O)CC[C@H]2[C@@H]3[C@H](C)CC4=C(CCC(=O)C4)[C@H]3CC[C@@]21C,inactive
CCC(C)(C)N=C(NC#N)Nc1cccnc1,inactive
CC(c1cc2ccccc2s1)N(O)C(N)=O (centres unmarked),inactive
CCOC(=O)c1ccc(OC(=O)CCCCCN=C(N)N)cc1.CS(=O)(=O)O,inactive
CN1CCC(=C2c3ccccc3C=Cc3ccccc32)CC1,inactive
CC(C)C[C@H](NC(=O)[C@@H](COC(C)(C)C)NC(=O)[C@H](Cc1ccc(O)cc1)NC(=O)[C@H](CO)NC(=O)[C@H](Cc1c[nH]c2ccccc12)NC(=O)[C@H](Cc1cnc[nH]1)NC(=O)[C@@H]1CCC(=O)N1)C(=O)N[C@@H](CCCNC(=N)N)C(=O)N1CCC[C@H]1C(=O)NNC(N)=O,inactive
CCOC(=O)C1=C(COCCN)NC(C)=C(C(=O)OC)C1c1ccccc1Cl (centres unmarked),inactive
CCOC(=O)[C@H](CCc1ccccc1)N[C@H]1CCc2ccccc2N(CC(=O)O)C1=O,inactive
CC(=O)[C@]1(O)Cc2c(O)c3c(c(O)c2[C@@H](O[C@H]2C[C@H](N)[C@H](O)[C@H](C)O2)C1)C(=O)c1ccccc1C3=O,inactive
CC(=O)OCC(=O)[C@@]1(O)CC[C@H]2[C@@H]3CCC4=CC(=O)CC[C@]4(C)[C@H]3[C@@H](O)C[C@@]21C,inactive
CCOC(=O)OC(C)OC1=C(C(=O)Nc2ccccn2)N(C)S(=O)(=O)c2ccccc21 (centres unmarked),inactive
CC(C[N+](C)(C)C)OC(N)=O (centres unmarked),inactive
Nc1nc(=O)[nH]cc1F,inactive
O=C1C(CC[S+]([O-])c2ccccc2)C(=O)N(c2ccccc2)N1c1ccccc1 (centres unmarked),inactive
CN(CCOc1ccc(CC2SC(=O)NC2=O)cc1)c1ccccn1 (centres unmarked),inactive
CC(=O)OCC(CCn1cnc2cnc(N)nc21)COC(C)=O,inactive
CNS(=O)(=O)Cc1ccc2[nH]cc(CCN(C)C)c2c1,inactive
O=C1c2c(O)ccc(O)c2C(=O)c2c(NCCNCCO)ccc(NCCNCCO)c21,inactive
O=C(CCCN1CC=C(n2c(=O)[nH]c3ccccc32)CC1)c1ccc(F)cc1,inactive
O=C1CC[C@@H](C(=O)N2CSC[C@H]2C(=O)O)N1,inactive

# Single results of other studies
SMILES,target or system,test,system,conditions,scale,quantity,value
Cc1c(Nc2ncccc2C(=O)O)cccc1C(F)(F)F,,,,,,logP,4.8
CNS(=O)(=O)Nc1nccc(Cc2c(C)c3ccc(Oc4ncccn4)cc3oc2=O)c1F,,,human,oral,,Tmax,1 to 2 h
O[C@]1(C(F)(F)F)CCCC[C@H]1Nc1ccc(F)cc1,TRPA1,biochemical,,,,IC50,16 nM
COc1ccccc1Oc1c(NS(=O)(=O)c2ccc(C(C)(C)C)cc2)nc(-c2ncccn2)nc1OCCO,,,human,"62.5 mg, 28 days",,Cmax,1400 nM
Cc1cn([C@H]2C[C@H](N=[N+]=[N-])[C@@H](CO)O2)c(=O)[nH]c1=O,human immunodeficiency virus 1,viral replication,"PBMC, LAI",,,ED99,10 nM
CC1(C)S[C@@H]2[C@H](NC(=O)Cc3ccccc3)C(=O)N2[C@H]1C(=O)O,,,,,,logP,1.72
Cc1cc(Cc2cc(C)cc(C(C)(C)C)c2O)c(O)c(C(C)(C)C)c1,"SERCA, rat skeletal muscle",inhibitor,,,,IC50,700 nM
CC(=O)O[C@H]1C(=O)[C@@]2(C)[C@H]([C@H](OC(=O)c3ccccc3)[C@]3(O)C[C@H](OC(=O)[C@H](O)[C@@H](NC(=O)c4ccccc4)c4ccccc4)C(C)=C1C3(C)C)[C@]1(OC(C)=O)CO[C@@H]1C[C@@H]2O,,,,,,logP,3.3
O=C1CCc2cc(Nc3cc(OC4CCOCC4)c([N+](=O)[O-])cc3Cl)ccc2N1,BCL6 (human),enzyme activity,,,,IC50,100 nM
CCC(C)n1ncn(-c2ccc(N3CCN(c4ccc(OCC5COC(Cn6cncn6)(c6ccc(Cl)cc6Cl)O5)cc4)CC3)cc2)c1=O (centres unmarked),,,human,capsule fed,,fraction absorbed,0.59
CC1(C)S[C@@H]2[C@H](NC(=O)[C@H](N)c3ccccc3)C(=O)N2[C@H]1C(=O)O,Micrococcus flavus,,,,,MIC,0.031 to 4 µg/mL
C[C@H]1O[C@@H](O[C@H]2[C@@H](O)C[C@H](O[C@H]3[C@@H](O)C[C@H](O[C@H]4CC[C@@]5(C)[C@H](CC[C@@H]6[C@@H]5C[C@@H](O)[C@]5(C)[C@@H](C7=CC(=O)OC7)CC[C@]65O)C4)O[C@@H]3C)O[C@@H]2C)C[C@H](O)[C@@H]1O,,,human,with: diltiazem,relative to: with over without diltiazem,Cmax ratio,1.38
O=C(N[C@H](CO)[C@H](O)c1ccc([N+](=O)[O-])cc1)C(Cl)Cl,Staphylococcus aureus,,,,,MIC,≥ 3.1 µg/mL
c1ccc(N2CCN(Cc3nc4ccccc4[nH]3)CC2)nc1,5-HT1A receptor,Cerep binding,,,,Ki,2780 nM
Nc1ncnc2c1ncn2[C@@H]1O[C@H](COP(=O)(O)OP(=O)(O)OP(=O)(O)O)[C@@H](O)[C@H]1O,PKA catalytic subunit,inhibitor,,,,IC50,20 to 60 nM
Cc1nc(N2CC[C@@H](O)C2)ncc1-c1cc(C(F)(F)F)cc2[nH]ncc12,METAP2 (human),enzyme activity,,Mn(II) enzyme,,IC50,7 nM
COCC(=O)O[C@]1(CCN(C)CCCc2nc3ccccc3[nH]2)CCc2cc(F)ccc2[C@@H]1C(C)C,,,plasma,"concentration not given, total, steady state",,Cmax,2900 nM
CO[C@H]1/C=C/O[C@@]2(C)Oc3c(C)c(O)c4c(O)c(c(/C=N/N5CCN(C)CC5)c(O)c4c3C2=O)NC(=O)/C(C)=C\C=C\[C@H](C)[C@H](O)[C@@H](C)[C@@H](O)[C@@H](C)[C@H](OC(C)=O)[C@@H]1C,,,"human, plasma total",600 mg,,Cmax,9800 nM
CC(O)C(C)n1ncn(-c2ccc(N3CCN(c4ccc(OCC5COC(Cn6cncn6)(c6ccc(Cl)cc6Cl)O5)cc4)CC3)cc2)c1=O (centres unmarked),,,,,,log P (octanol/water),4.47
CC[C@H](C)CCCCC(=O)N[C@@H](CCN)C(=O)N[C@H](C(=O)N[C@@H](CCN)C(=O)N[C@H]1CCNC(=O)[C@H]([C@@H](C)O)NC(=O)[C@H](CCN)NC(=O)[C@H](CCN)NC(=O)[C@H](CC(C)C)NC(=O)[C@@H](Cc2ccccc2)NC(=O)[C@H](CCN)NC1=O)[C@@H](C)O,,,healthy Chinese subjects,0.75 mg/kg single dose,,total clearance,1.96 ± 0.14 L/h
CO[C@H]1C[C@@H]2CC[C@@H](C)[C@@](O)(O2)C(=O)C(=O)N2CCCC[C@H]2C(=O)O[C@H]([C@H](C)C[C@@H]2CC[C@@H](OCCO)[C@H](OC)C2)CC(=O)[C@H](C)/C=C(\C)[C@@H](O)[C@@H](OC)C(=O)[C@H](C)C[C@H](C)/C=C/C=C/C=C/1C,,,plasma,"concentration not given, total, steady state",,Cmax,60 nM
CC/C(=C(\c1ccc(O)cc1)c1ccc(OCCN(C)C)cc1)c1ccccc1,"estrogen receptor alpha, human","reporter gene, inhibitor",human breast cancer cells,,,IC50,< 270 nM
